Results from different studies.
Each numbered part is a random draw from the data of one study; scales do not carry over between parts. Positions count from the first letter of the parent shown.
Chain of UniProt Q9HAZ1 (whole entry, looked up): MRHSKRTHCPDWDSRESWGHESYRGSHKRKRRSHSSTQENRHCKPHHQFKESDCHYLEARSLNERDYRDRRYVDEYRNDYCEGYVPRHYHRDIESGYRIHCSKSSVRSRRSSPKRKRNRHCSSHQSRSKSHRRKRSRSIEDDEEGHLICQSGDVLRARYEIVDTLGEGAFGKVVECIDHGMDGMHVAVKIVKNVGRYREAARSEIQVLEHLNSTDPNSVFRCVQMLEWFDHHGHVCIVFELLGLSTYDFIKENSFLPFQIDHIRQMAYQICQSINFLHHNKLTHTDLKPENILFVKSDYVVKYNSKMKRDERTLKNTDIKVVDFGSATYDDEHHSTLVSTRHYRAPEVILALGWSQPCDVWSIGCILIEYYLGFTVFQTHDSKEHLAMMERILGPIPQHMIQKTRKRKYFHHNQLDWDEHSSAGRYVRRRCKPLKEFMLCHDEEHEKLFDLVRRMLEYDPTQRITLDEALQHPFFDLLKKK
Chain of UniProt P23975 (whole entry, looked up): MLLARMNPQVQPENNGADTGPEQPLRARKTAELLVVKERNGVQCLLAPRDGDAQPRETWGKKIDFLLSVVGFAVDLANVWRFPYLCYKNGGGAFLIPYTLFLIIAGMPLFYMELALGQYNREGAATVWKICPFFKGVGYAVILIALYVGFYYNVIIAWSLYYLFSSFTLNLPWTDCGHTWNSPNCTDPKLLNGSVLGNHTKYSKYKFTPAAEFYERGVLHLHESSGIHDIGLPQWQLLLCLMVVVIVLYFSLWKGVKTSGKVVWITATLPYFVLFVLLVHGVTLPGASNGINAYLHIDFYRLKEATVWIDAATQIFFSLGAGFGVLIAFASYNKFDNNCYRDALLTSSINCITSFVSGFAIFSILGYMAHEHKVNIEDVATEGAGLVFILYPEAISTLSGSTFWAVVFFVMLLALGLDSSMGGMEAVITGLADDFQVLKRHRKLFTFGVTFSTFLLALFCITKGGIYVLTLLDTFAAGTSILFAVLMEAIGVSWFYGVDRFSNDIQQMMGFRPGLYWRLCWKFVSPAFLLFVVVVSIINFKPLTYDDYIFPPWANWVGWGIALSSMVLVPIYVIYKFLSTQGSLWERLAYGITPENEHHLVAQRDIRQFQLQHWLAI

Series 1
Target: vanadate, free oxyanion
Method: microfluidic competitive inhibition
Matrix: in vitro, cell-free expressed
Tested at: not given
Setting: derived from inhibition constants, unchanged parent 676 nM
Direction: lower = stronger binding
Parent: PafA, mature enzyme, eGFP fusion (Elizabethkingia meningoseptica, UniProt Q9KJX5); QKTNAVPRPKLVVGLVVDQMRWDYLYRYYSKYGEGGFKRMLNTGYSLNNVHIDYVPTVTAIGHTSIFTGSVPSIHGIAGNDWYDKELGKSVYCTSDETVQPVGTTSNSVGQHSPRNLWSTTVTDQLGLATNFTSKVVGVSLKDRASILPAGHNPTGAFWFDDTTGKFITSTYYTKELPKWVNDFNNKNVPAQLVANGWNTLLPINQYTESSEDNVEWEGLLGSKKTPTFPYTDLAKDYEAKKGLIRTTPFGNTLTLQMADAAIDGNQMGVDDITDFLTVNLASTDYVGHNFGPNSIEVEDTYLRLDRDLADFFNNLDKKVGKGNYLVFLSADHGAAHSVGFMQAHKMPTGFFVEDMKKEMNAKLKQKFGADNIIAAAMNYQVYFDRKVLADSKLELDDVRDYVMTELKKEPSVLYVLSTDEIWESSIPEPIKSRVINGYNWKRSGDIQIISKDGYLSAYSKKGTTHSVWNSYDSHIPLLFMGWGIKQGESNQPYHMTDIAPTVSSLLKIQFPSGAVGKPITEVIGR
| Substitution | oxyanion analog dissociation constant |
| --- | --- |
| T521G | 0.626 µM |
| C93G | 2.23 µM |
| P348G | 0.751 µM |
| N437G | 0.985 µM |
| S210G | 0.578 µM |
| K486G | 0.684 µM |
| D473G | 0.71 µM |
| G222A | 0.524 µM |

Series 2
Target: CCNE2, cyclin fold, Cln2 fusion (human)
Method: yeast growth competition, sequencing
Matrix: yeast
Setting: strong parent motif
Relative to: not given
Direction: higher = stronger binding
Parent: viral docking peptide; TSVRRALFTGGSD
| Substitution | normalised enrichment score |
| --- | --- |
| TYVRRALFTGGSD [S2Y] | 2.81 |
| TSARRALFTGGSD [V3A] | 2.27 |
| TSVRRAIFTGGSD [L7I] | 0.522 |
| TSVWRALFTGGSD [R4W] | 0.952 |
| TSVRRALYTGGSD [F8Y] | 0.468 |
| TSVRRAKFTGGSD [L7K] | 0.318 |
| TSVRRALFTWGSD [G10W] | 2.09 |
| TSVFRALFTGGSD [R4F] | 1.35 |

Single results of other studies
| SMILES | target | assay | setting | how to read | endpoint | value |
| --- | --- | --- | --- | --- | --- | --- |
| CCCOc1ccc([C@H]2[C@H](C(=O)O)[C@@H](c3ccc4c(c3)OCO4)CN2CC(=O)Nc2c(CC)cccc2CC)cc1 | 5-hydroxytryptamine receptor 1A (HTR1A, Homo sapiens, UniProt P08908) | cell-free assay | 10 µM | – | inhibition | -16.7% |
| N/C(=N\[N+](=O)[O-])N/N=C\c1ccc(-c2cccc([N+](=O)[O-])c2)o1 | Dual specificity protein kinase CLK4 (CLK4, Homo sapiens, UniProt Q9HAZ1) | enzyme activity, inhibitor | 0.5 µM | relative to: control | remaining activity | 103% |
| O=C1CCc2cc(Nc3cc(OC4CCOCC4)c([N+](=O)[O-])cc3Cl)ccc2N1 | Cyclin-dependent kinase 2 homolog (CRK2, Plasmodium falciparum, UniProt P61075) | cell-free assay, competition with immobilised ligand | 1 µM | – | remaining binding | 100% |
| CN1CCN(c2cnc3c(C4CCN(C(=O)c5ccc(OC(F)(F)F)cc5N)CC4)ncnc3c2)CC1 | Sodium-dependent noradrenaline transporter (SLC6A2, Homo sapiens, UniProt P23975) | ligand displacement | 10 µM | – | inhibition | -17.2% |
